Measured values of several laboratories.
Lines come from different studies, so protocols differ. ± gives the spread as reported. ≈ marks a conversion by molar mass, not a printed value.

| Molecule | test | test system | setting | how to read | quantity | value |
| --- | --- | --- | --- | --- | --- | --- |
| CCCCCCCCCC[N+](C)(C)Cc1ccccc1 | substrate depletion | human liver microsomes | 0.5 µM, 0 to 3 h, 37 °C, added: NADPH | – | intrinsic clearance | 1.43 mL/h/mg protein |
| CC(C)c1nc(CN(C)C(=O)N[C@H](C(=O)N[C@@H](Cc2ccccc2)C[C@H](O)[C@H](Cc2ccccc2)NC(=O)OCc2cncs2)C(C)C)cs1 | – | healthy human volunteers, plasma | oral, dose not given, added: escitalopram plus 2D regimen | – | AUC(0-24) | 8450 ng·h/mL |
| CC[C@H](C)[C@H](NC(=O)[C@H](CCC(=O)O)NC(=O)[C@H](CCC(=O)O)NC(=O)[C@H](Cc1ccccc1)NC(=O)[C@H](CC(=O)O)NC(=O)CNC(=O)[C@H](CC(N)=O)NC(=O)CNC(=O)CNC(=O)CNC(=O)CNC(=O)[C@@H]1CCCN1C(=O)[C@H](CCCNC(=N)N)NC(=O)[C@@H]1CCCN1C(=O)[C@H](N)Cc1ccccc1)C(=O)N1CCC[C@H]1C(=O)N[C@@H](CCC(=O)O)C(=O)N[C@@H](CCC(=O)O)C(=O)N[C@@H](Cc1ccc(O)cc1)C(=O)N[C@@H](CC(C)C)C(=O)O | – | PCI patients, plasma | intravenous, 0.75 mg/kg bolus then 1.75 mg/kg/h, 30 min | – | steady-state plasma concentration | 2700 ± 500 nM |
| CC(=O)Nc1ccc2c(c1)Cc1ccccc1-2 | reconstructed skin micronucleus | EpiDerm reconstructed skin | concentration not given, 48 h, added: cytochalasin B 3 µg/mL | – | cytotoxicity threshold dose | 140 µg/cm2 |
| [Met(O2)35]Aβ40 | electron microscopy | sodium phosphate buffer | 10 µM, pH 7.4, 25 °C, agitation 200 rpm | baseline: wild-type peptide | delay of fibril formation | ~24 h |
| CC[C@H](C)[C@H](NC(=O)[C@@H](N)CCCNC(=N)N)C(=O)N[C@H](C(=O)N1CCC[C@H]1C(=O)N[C@@H](C)C(N)=O)C(C)C | – | human, plasma | intravenous, 2 mg/kg, single dose, healthy volunteers | – | MRT | 4.8 min |
| O[C@H]1CCCN[C@@H]1CCCn1cnc2c(Cl)c(Cl)ccc21 | – | healthy human volunteers, plasma | oral, 100 mg, day 1, multiple ascending dose | – | AUC(0-tau) | 329 ng·h/mL |
| [123I]c1cncc(OC[C@@H]2CCN2)c1 | SPECT | human, hippocampus | intravenous bolus, 8.6 mCi | baseline: tissue over plasma | tissue/plasma ratio | 21.7 |
| CC[C@@]1(O)C(=O)OCc2c1cc1n(c2=O)Cc2cc3c(CN(C)C)c(O)ccc3nc2-1 | – | human patients, plasma | oral, 2.5 mg daily for 5 days, MTD arm, daily dosing, added: pazopanib | baseline: with pazopanib over alone | AUC(0-inf) ratio | 1.48 |
| CCCCCOc1ccc(-c2ccc(-c3ccc(C(=O)N[C@H]4C[C@@H](O)[C@@H](O)NC(=O)[C@@H]5[C@@H](O)[C@@H](C)CN5C(=O)[C@H]([C@@H](C)O)NC(=O)[C@H]([C@H](O)[C@@H](O)c5ccc(O)cc5)NC(=O)[C@@H]5C[C@@H](O)CN5C(=O)[C@H]([C@@H](C)O)NC4=O)cc3)cc2)cc1 | population PK model | patients, typical weight sample D kg | intravenous, dose not given | – | central volume of distribution | 26.7 L |
| COc1ccc(-c2cc(=O)c3c(OC)c(OC)c(OC)c(OC)c3o2)cc1OC | – | C57BL/6 mouse, male, feces | oral, 1% w/w in diet, 6 weeks, orange peel extract diet | baseline: content in orange peel | tissue to peel content ratio | 127% |
| CC(C)C[C@H](NC(=O)[C@H](CCC(=O)O)NC(=O)[C@H](CCC(=O)O)NC(=O)[C@H](CC(=O)O)NC(=O)[C@H](CCC(=O)O)NC(=O)[C@H](CCC(=O)O)NC(=O)[C@H](CCC(=O)O)NC(=O)[C@@H](N)CC(=O)O)C(=O)O | – | rat, plasma | intranasal, 5.5 mg/kg single dose, 90 min | – | plasma concentration | 31.9 ng/mL |
| COc1ccc2c(c1)[nH]c1c(C)nccc12 | – | Kunming mice, both sexes | oral, 14 days | – | LD50 | 329 to 606 mg/kg |
| CN[C@@](C)(C[18F])C(=O)O | – | mouse, muscle | 15 min, tumour-bearing | – | tracer uptake | 1.2 %ID/g |
| CC(=O)N[C@H](CCCCNC(=O)C(C)F)C(=O)N[C@@H](CS)C(=O)N[C@@H](CS)C(=O)N[C@@H](CCC(=O)O)C(=O)N[C@@H](Cc1c[nH]cn1)C(=O)N[C@H](Cc1ccccc1)C(=O)N[C@@H](CCCNC(=N)N)C(=O)N[C@@H](Cc1c[nH]c2ccccc12)C(=O)N[C@@H](CS)C(=O)N[C@@H](CCCNC(=N)N)C(=O)N1CCC[C@H]1C(=O)N[C@H](C(N)=O)C(C)C (some centres unmarked) [fluorine-18 labelled] | – | male C57BL/6 mice, B16-F10 tumour | intravenous, 4 h | baseline: tumour over muscle | tumour to tissue uptake ratio | 17 ± 1.73 |
| Cc1cc(C(C#N)c2ccc(Cl)cc2)c(Cl)cc1NC(=O)c1cc(I)cc(I)c1O (centres unmarked) | HPLC, non-compartmental | Corriedale lambs, parasitized, plasma | oral, 10 mg/kg, added: moxidectin 0.2 mg/kg oral | – | Tmax | 36.2 ± 16.6 h |
| CSCC[C@@H]1NC(=O)[C@H](CC(=O)O)NC(=O)CNC(=O)[C@H](CCCNC(=N)N)NC(=O)[C@H](C)NC(=O)[C@H](CCC(=O)O)NC(=O)[C@H](CCCNC(=N)N)NC(=O)[C@@H]2CSSC[C@@H]3NC(=O)[C@H](CO)NC(=O)[C@H]([C@@H](C)O)NC(=O)[C@@H]4CCCN4C(=O)[C@H](C)NC(=O)[C@H](Cc4c[nH]c5ccccc45)NC(=O)[C@H](CC(=O)O)NC(=O)CNC(=O)[C@H](CCCNC(=N)N)NC(=O)CNC(=O)[C@H](CCC(N)=O)NC(=O)[C@@H]4CCCN4C(=O)[C@@H](NC(=O)CNC(=O)C(C)F)CSSC[C@H](NC(=O)CNC(=O)[C@H](C)NC(=O)[C@H](CC(C)C)NC(=O)[C@H](CSSC[C@@H](C(=O)NCC(N)=O)NC(=O)[C@H]([C@@H](C)O)NC(=O)[C@H](CCCNC(=N)N)NC(=O)[C@@H]4CCCN4C1=O)NC(=O)[C@H](CC(=O)O)NC(=O)[C@H](CO)NC(=O)[C@H](CC(=O)O)NC(=O)[C@H](CCC(N)=O)NC(=O)[C@H](CO)NC3=O)C(=O)N[C@@H](C(C)C)C(=O)N2 (some centres unmarked) [fluorine-18 labelled] | – | nude mice U-87 MG xenograft, intestine | intravenous, 2.5 h | – | tissue uptake | 0.48 ± 0.09 %ID/g |
| CCN(CC)CCCC(C)Nc1ccnc2cc(Cl)ccc12 (centres unmarked) | – | male athymic BALB/c nude mice, xenograft, serum | intraperitoneal, 60 mg/kg every other day, 2 weeks, added: sulforaphane 5 mg/kg | – | AST activity | 18.6 ± 2.85 U/L |
| COc1cc(-c2nc(-c3ccccc3)c(-c3cccs3)[nH]2)cc(OC)c1OC(=O)C1=CN(C)C=CC1 | – | C57BL/6 mouse, CES1 knockout, liver homogenate | 10 µM, 1 h, 37 °C | – | remaining compound | < 25% |
| triclabendazole sulfoxide | – | human liver mitochondrial fraction | 1 µM, 30 min | – | metabolised fraction | 0% |
| NC(=O)c1nc(F)c[nH]c1=O | UV-Vis spectrophotometry | supercritical CO2 | 120 min, 318 K, 12 MPa, 659.73 kg/m^3 | – | solubility | 87 µg/mL (≈ 554 µM) |
| Cc1ccc(Nc2nccc(N(C)c3ccc4c(C)n(C)nc4c3)n2)cc1S(N)(=O)=O | – | patients with gastric acid suppression, plasma | oral, 800 mg once daily, 24 h, fasted, first steady state, geometric mean | – | Cmin | 23700 ng/mL |
| CC(C)C[C@H]1NC(=O)CNC(=O)[C@H]2CCCN2C(=O)CNC(=O)[C@@H](CCCNC(=N)N)NC(=O)[C@@H](Cc2ccccc2)NC(=O)CNC(=O)[C@@H](Cc2ccc(O)cc2)NC(=O)CNC(=O)[C@@H](CCCNC(=N)N)NC(=O)[C@@H](C)NC(=O)[C@@H](CCCNC(=N)N)NC(=O)[C@@H](Cc2ccccc2)NC(=O)[C@H](N)CSSC[C@H](C(=O)O)NC1=O | RP-HPLC | MDCK cell lysate | pH 7.4, 37 °C | – | stability time | > 23 h |

Some of these lines once more:
| Molecule | test | test system | setting | how to read | quantity | value |
| --- | --- | --- | --- | --- | --- | --- |
| Cc1ccc(Nc2nccc(N(C)c3ccc4c(C)n(C)nc4c3)n2)cc1S(N)(=O)=O | – | patients with gastric acid suppression, plasma | oral, 800 mg once daily, 24 h, fasted, first steady state, geometric mean | – | Cmin | 23700 ng/mL |
